Experimental data collected from several papers.
A part holds a random share of what one study measured. Substitutions count along the parent as printed.

Study 1 — target: CCNF, cyclin fold, Cln2 fusion (human); method: yeast growth competition, sequencing; medium: yeast; setting: strong parent motif; reference: not given; direction: higher = stronger binding; measurement: normalised enrichment score
Parent: ORC1 docking peptide (human); PRARKRLELGNLG
Variant = WRARKRLELGNLG [P1W]; result = 4.93
Variant = PRARKRLHLGNLG [E8H]; result = 1.67
Variant = PRARKRLELDNLG [G10D]; result = 5.47
Variant = PRAKKRLELGNLG [R4K]; result = 2
Variant = PRARKRLELGNLV [G13V]; result = 3.65
Variant = PRARKRLELGNLF [G13F]; result = 3.24
Variant = PRARKRFELGNLG [L7F]; result = 0.198
Variant = PRARKRLEYGNLG [L9Y]; result = 3.83
Variant = PRARKRLELGNLM [G13M]; result = 5.57
Variant = PRARKILELGNLG [R6I]; result = 1.61
Variant = PRARKRLELGNWG [L12W]; result = 5.04
Variant = PFARKRLELGNLG [R2F]; result = 1.74
Variant = PRARKRLELGNHG [L12H]; result = 3.68
Variant = PGARKRLELGNLG [R2G]; result = 3.36
Variant = PRGRKRLELGNLG [A3G]; result = 0.973

Study 2 — method: RNA Bind-n-Seq; form: RNA; medium: in vitro; concentration: 365 nM; reference: no-protein control; direction: higher = stronger binding; measurement: RBNS enrichment (R)
Target: RNA binding protein fox-1 homolog 2, RRM domain, GST-SBP tag (RBFOX2, Homo sapiens, UniProt O43251-10, residues 100-194)
Setting: natural RNA segment, single round, ends assumed
Constant ends, left off below: GGGAGUUCUACAGUCCGACGAUC … UGGAAUUCUCGGGUGCCAA
Target sequence (chain): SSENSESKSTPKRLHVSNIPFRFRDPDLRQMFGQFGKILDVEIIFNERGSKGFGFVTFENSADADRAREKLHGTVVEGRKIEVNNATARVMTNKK
Oligonucleotide = CCAGGACCAAGUCCUCUGCUGUUGGGGACCAUGGCCUGUCUCCUCACCUUAGUCCCUGGGCGUUUGCUUAUUGGUCUCCUGGAAUCUCAAAGGGCCUGAGGCCUUAGGCU; result = 0.278
Oligonucleotide = AGUCGGGGAACUCCCACUAGCUCACCUGAGGGGGGCUCGAUGCAGCUGAAAUACUGAAUACUGAAAUACUAGAAACCAACAAAACUGGUUUCUAGAAUUCUCCAGGGAUU; result = 0.234
Oligonucleotide = GCGAGACUCCUUGGUCUCAUUUGCCUUCACUUUGCAUUUGUUAGUGACCUCCACUAACCCCCACUUCCAUGCAUAUUGACGAGGGAUCUAGUCUAAGUAAGAAUGUCUUU; result = 0.69
Oligonucleotide = UUCCAUUGACAUUUAGAGUGAAAUAUUUUAUGCCAAAAAAAAAAUCUCUUUUUUAAAAAAGGGGGUUUGACUAUUGUUGGCAUUCUUGUGGUUCCUUUAAAUGCCCUUAC; result = 0.495
Oligonucleotide = UUUUCUAUAUGGGGAUUUUCUAUUUAUGUAGGUAAUAUUGUUCUAUUUGUAUAUAUUGAGAUAAUUUAUUUAAUAUACUUUAAAUAAAGGUGACUGGGAAUUGUUACUGU; result = 0.864
Oligonucleotide = UUUGAGUUAUGUGGGGCCAGCAGAAGUCUCAAUCCUUAUAGGCUUGAUGGUGAGAGCAGCGGGAGGUUUGAGGUGUACUCAUUGCAGUCCACUUUGGUCUGUAAGUAGGA; result = 0.771
Oligonucleotide = UGGCAGGCUGGUCCCCCUCCGUGAAAGUGUGGAUUCCUACUUCCUGCUCUAAGCUUUGACACGUCAAAAUGUGGGAUCAGAAAGAAAAAAAUCAUGAUAUUUAAAAAUGG; result = 0.302
Oligonucleotide = UUACAAAGGCUGUAUUCAGCAAGGCGCUAACUUGCUUAAAUGUGAAUUACUAACUUCUAAAACUGUACUUUGAUUCACAUGUUUUCAAAUGGAGUUGGAGUUCAUUCAUA; result = 0.236
Oligonucleotide = UAUUACGUAUGUACUUCUAGGUUGCAAGGUUUUGAAAUUUUCUGUACAGUUUGUGAGGACCUUUGCACUUUGCCAUCUGAUGUCGUACCUCGGUUCACUGUUUGUUUUCG; result = 0.39
Oligonucleotide = AAAUAUGGCCCCCAGCUAUUUUUGUAAAUAAAGGUUUAUUGGGAACACAGCCACACCCAAUCCUUCAGGUCUAUGGCUGCUUCUGCCCUACAGUGAUUGAGUUGCAUAGU; result = 0.482
Oligonucleotide = AUUUGAGACAAAUAGUCGGAUUAGAAAUAAAGCAUCUCAUUUUGAGUAGAGAGCAAGGGAAGUGGUUCUUAGAUGGUGAUCUGGGAUUAGGCCCUCAAGACCCUUUUGGG; result = 1.11
Oligonucleotide = UAAUUUUGAGGCAUAGGGUAGCUUACGUAGUGGAGGAUGUGCCAAAUAUUCUCUUCAAAUGCCACCUUCUCAAUUUAUAACUAAAAUAGUGUUAUCUGACUAAUUCCUCU; result = 0.199

Study 3 — method: RNA Bind-n-Seq; form: RNA; medium: in vitro; concentration: not given; reference: input RNA pool; direction: higher = stronger binding; measurement: bound/input enrichment
Target: RING finger protein unkempt homolog, zinc fingers 1-6, GST-SBP tag (UNK, Homo sapiens, UniProt Q9C0B0, residues 30-357)
Setting: RNA with constant flanks, human-mouse chimeric sites, ends assumed
Constant ends, left off below: GGGAGUUCUACAGUCCGACGAUC … CAACAGAGGAUUGAGCAUCA
Residues (chain): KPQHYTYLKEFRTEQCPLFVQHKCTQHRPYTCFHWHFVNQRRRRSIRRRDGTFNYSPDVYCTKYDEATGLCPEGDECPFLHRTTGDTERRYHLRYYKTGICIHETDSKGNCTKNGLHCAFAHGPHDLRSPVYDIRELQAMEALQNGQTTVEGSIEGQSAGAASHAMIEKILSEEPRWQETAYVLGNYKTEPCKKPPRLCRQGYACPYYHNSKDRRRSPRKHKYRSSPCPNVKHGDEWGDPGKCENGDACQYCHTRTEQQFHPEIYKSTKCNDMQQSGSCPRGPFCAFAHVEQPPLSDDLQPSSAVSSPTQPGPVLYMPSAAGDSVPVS
Oligonucleotide = UACUGCUGCUUUCAACUUAAAUCACUGAGGCAUCUCUACUGUUCUGUGAGCAUCAGGACUGUAGCGCUGUGUCACCACAUGAGAGUUGUUAAGCAGCCUUUCUGUGGAGGGUGGGAAUGA; result = 0.107 ratio
Oligonucleotide = ACCUCCCCCUCCCGCCUGCUUUUUGAAAAGAAAGAAAGAAAGUUUUUGGCGUUUCUUUUCCUUCCCCAUACAAAGUGAUUACAGUUUCCCCCGCAAGGGUCUAUCGAAGGGCUUGACGGA; result = 0.436 ratio
Oligonucleotide = GUGCCCUUCUCGCUGCUGCGGAGCCCGAGCUGGGAACCAUUCCGGGACGACUGGUACGCACACAGCCGCCUCUUCGAUCAAGCUUUCGGGGUGCCCCGGCUGCCGGAUGAGUGGUCGCAG; result = 0.0759 ratio
Oligonucleotide = GUAUUUGUGCGCUCCCCACUCGUGUUUUUAAGUGUAUUUUUAUAAGAUACAUGUAUUUACAAUUGAGCUUUUGUUACAUAAUGCUGAAAUGCUACUGCAAUAUUAUGAAAAUGUUUCAAU; result = 0.155 ratio
Oligonucleotide = AUAAAGGCUAUGUUGAGUGGUCCAGGUCAGUUUGCUGAGAAUGAAACCAACGAGGUCAAUUUUAGAGAGAUCCCCUCACAUGUGCUAUCGAAAGUAUGCAUGUAUUUUACCUACAAGGUC; result = 0.184 ratio
Oligonucleotide = AUGGAACAUUUCGAUGCGUCACUCAGUACCUAUUUCAAGGCCUUCCUGGGCCCCCGAGAUACAAGAGUAAAAGGAUGGUUCCUCCUGGACAAUUACAUACCCACAUUUGUCUGUUCUGUU; result = 0.0763 ratio
Oligonucleotide = CACAGAGCAGCACCUACCCCCUCCUCCUUUCCACACCUGCAAACCCUUUUACUUGGGCUGCAUAGUUAGUGUAAUUACAUCUCAGCUUUGAGGGCUCCUGUGGCAAAUUCCCGGAUUAAA; result = 5.24 ratio
Oligonucleotide = UUUCUACUGCAGCAAACGAUGCUAAGAAUUAAGGAUCCUAAGAAGUCCCUGGAUUUUUAUACGAGGGUUCUUGGACUGACCCUCCUGCAGAAGCUUGAUUUUCCCAUUAUGAAGUUUUCG; result = 0.293 ratio
Oligonucleotide = CUGGCCUGGCCCUCCCCAGGGGCCUCCUUCUCUGCAUUCACUGCUUCUGCAUCAGAUACUUUCAGCUGCAACUCCCUACUGGGUGGGGCACCCAUUUCAGGCAGAAGUUGGUGCCCCCCU; result = 0.226 ratio
Oligonucleotide = ACUCAGAGAUCCACCUCCCAAAGUGCUCUGGAGCUCUGUGUGGCCACCACACCUAACUUCAUAGACAUAUAUUUUUUUUAAUAUGAAUCUUCCUGUUCGUCCAGGGAAGAAAGAUUUGUU; result = 29.3 ratio
Oligonucleotide = AGCACAACCCCAGCAAAGCUAAGAAAUCCUUGUACAAGUGAACAGAACUGCACCAGCCCAUUUAGCUACAAAAAUGUGCUUAGUCUUACUGACAGAGGAGAGUUUUUCAAUGAACUUGUU; result = 1.06 ratio

Study 4 — method: Sort-seq; refers to: YFP reporter; medium: E. coli; setting: PhoQ-PhoP variant library; together with: 10 µM Mg2+; reference: high Mg2+ state; direction: higher = stronger signaling; measurement: fold induction
Molecule: PhoQ, residues 284 288 289 292 302 303 MLMVEA
target = PhoP, residues 12 14 15 18 19 HHYTI (Escherichia coli, UniProt P23836); result = 15
target = PhoP, residues 12 14 15 18 19 SFCSL (Escherichia coli, UniProt P23836); result = 18.6
target = PhoP, residues 12 14 15 18 19 AYFRS (Escherichia coli, UniProt P23836); result = 12.1

For quick reference, copied from above (study 1):
Variant = PRARKRLELGNWG [L12W]; result = 5.04
Variant = PFARKRLELGNLG [R2F]; result = 1.74
Variant = PRARKRLELGNLF [G13F]; result = 3.24
Variant = PRARKRLELDNLG [G10D]; result = 5.47
